Published values collected from several papers.
Parts stem from different laboratories: compare values within a part only. Changes are numbered by the printed parent chain.

Set 1 — technique: RNA Bind-n-Seq; form: RNA; medium: in vitro; concentration: 1 µM; notes: whole 134-nt RNA, ends assumed; added: 150 mM KCl; reference: input library; reading: higher = stronger binding
Target: Ras GTPase-activating protein-binding protein 1, C-terminal RGG region (G3BP1, Homo sapiens, UniProt Q13283)
UniProt Q13283, sequence (whole entry, looked up): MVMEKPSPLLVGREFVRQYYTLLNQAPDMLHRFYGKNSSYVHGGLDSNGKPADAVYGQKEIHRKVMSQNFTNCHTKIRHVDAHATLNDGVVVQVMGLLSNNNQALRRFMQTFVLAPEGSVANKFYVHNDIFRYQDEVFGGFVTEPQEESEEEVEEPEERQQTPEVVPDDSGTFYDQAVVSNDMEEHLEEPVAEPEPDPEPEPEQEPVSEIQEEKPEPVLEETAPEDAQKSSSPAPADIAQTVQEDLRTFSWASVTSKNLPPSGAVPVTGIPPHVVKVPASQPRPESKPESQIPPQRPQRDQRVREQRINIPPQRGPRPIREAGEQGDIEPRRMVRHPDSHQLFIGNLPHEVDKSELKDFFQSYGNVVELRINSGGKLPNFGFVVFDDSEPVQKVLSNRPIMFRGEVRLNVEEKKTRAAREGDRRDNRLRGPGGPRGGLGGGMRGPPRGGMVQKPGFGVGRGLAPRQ
All sequences stand within: GGGAGUUCUACAGUCCGACGAUC … UGGAAUUCUCGGGUGUCAAGG
Sequence	log2 enrichment
UUCGACGAAACAAUUCGAAAGCCCAUCAGUUUGGGUUGUGGCCAUACUGUCUGCAAGAUGUGCCUGAAUAAACUCCACCGCAAGGCUUGC	-0.173
GCAGGAAGUAAAAACAAAUGGAAAUGCUUAGGAUAGUGGCAGGGGUGGGGGUUGCUAAGGAAAGGGUGGGAUGGGAGUGGGUAAAGAGUU	2.31
AAGUCCUGUGCUACACAUCGUAUGUACCGAAUCGGGAAAAAGGGAAAGGGAAAGGGAAAGUAUUAUGUUACGCCGUUCGGAUCUGCACUU	0.67
UAACUUUAGAGGAGGAUCUGGUGGAUAUGGCAGUGGACGUGGAUUUGGGGAUGGCUAUAAUGGGUAUGGAGGAGGACCUGGAGGUGGCAA	-1.46
CACAGACAACACGGACCCACACAGACACAGAGGGAAGGGGUUGGGAUGGGGACAGGGUGCACAGCAGGGCGGGGUAGGACCCCAGCCCCU	-0.492
UGUAUCCCUGUUUCUUUUCUCCCUACAGAAACAUAUGAGGAUUUUGAUACCAGGAUACUUGAGGUAGGCAUGCAGAAUUAAAUACCUGGU	-0.907
UGGCCCUGGUGGCAUGCGGGGAGGAAGAGGUGGCCUCAUGGAUCGUGGUGGUCCCGGUGGAAUGUUCCGAGGUGGCCGUGGUGGAGACAG	3.84
UCAAGUCCUGUGCUACACAUCGUAUGUACCGAAUCGGGCCCGGCCCGGGCCCGGGAAAGUAUUAUGUUACGCCGUUCGGAUCUGCACUUC	-2.1
UCCUCAAGUCCUGUGCUACACAUCGUAUGUACCGAAUCGGGAGGGGAGGAGGAAAGUAUUAUGUUACGCCGUUCGGAUCUGCACUUCCAG	-0.645
UGGUGUUCAUAUUGCUGAUGUGAGCCAUUUUAUUAGGCCAGGAAAUGCCUUGGAUCAAGAAUCAGCCAGAAGAGGAACAACUGUGUAUCU	-1.04
GCAGGAAGUAAAAACAAAUGGAAAUGCUUCGGAUAGUGGCAGAGGUGGGGGUUGCUAAGGAAAGGGUGGGAUGGGAGUGGGUAAAGAGUU	0.921
UCAAGUCCUGUGCUACACAUCGUAUGUACCGAAUCGGGGUUGGUUGGGGUUGGGGAAAGUAUUAUGUUACGCCGUUCGGAUCUGCACUUC	0.134
CACAGACAACACGCACCCACACAGACACAGAGGGAAGGGGUUGGGACGGGGACAGGGUGCACAGCAGGGCGGGGUAGGACCCCAGCCCCU	-0.709
CUCAAGUCCUGUGCUACACAUCGUAUGUACCGAAUCGGAGGAGGUUUUUUUGGAAAGUAUUAUGUUACGCCGUUCGGAUCUGCACUUCCA	-1.23

Set 2 — technique: protein binding microarray; form: double-stranded DNA, one strand shown; medium: in vitro; concentration: not given; reference: not given; reading: higher = stronger binding
Target: Histone acetyltransferase KAT6A, both winged helices, GST fusion (KAT6A, Homo sapiens, UniProt Q92794, residues 1-181)
Notes: 8-mer, flanks averaged, mean of 2 arrays, mostly near background
Construct (chain): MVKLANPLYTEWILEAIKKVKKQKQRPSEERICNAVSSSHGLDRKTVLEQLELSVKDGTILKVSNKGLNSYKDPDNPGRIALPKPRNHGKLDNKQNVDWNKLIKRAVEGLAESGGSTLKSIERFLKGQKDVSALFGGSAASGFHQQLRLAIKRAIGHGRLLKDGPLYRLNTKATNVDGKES
Sequence	E-score
CGCAATAG	0.0483
CAAATCAC	0.0226
AAACGCGT	0.306
GTATCTGA	-0.0104
AGGAGTGG	-0.194
TAGCACGA	0.0251
GCATGGAA	-0.027
CCCAACCA	-0.212
ACATCCAT	-0.208
CATCCGTA	0.22
AGCGCGTC	0.325
ATAGGGAG	-0.227
CCACTGGA	-0.131
AAAATACT	-0.0753
ATCCCATG	-0.163
ATGTGAAC	-0.00762
CACTCAAG	-0.212
TAAGCCGA	0.0678
ACATTGTA	-0.102
CAACATGA	0.0639
CTGAGGGC	-0.112
CACTTATA	-0.0235
AGTCAAGC	-0.00419
CTCGTACC	0.0166

Set 3 — target: CCND1, cyclin fold, Cln2 fusion (human); technique: yeast growth competition, sequencing; medium: yeast; notes: weak parent motif; reference: not given; reading: higher = stronger binding
Starting sequence: CDC25A docking peptide (human); PPHRRRLLFACSP; partner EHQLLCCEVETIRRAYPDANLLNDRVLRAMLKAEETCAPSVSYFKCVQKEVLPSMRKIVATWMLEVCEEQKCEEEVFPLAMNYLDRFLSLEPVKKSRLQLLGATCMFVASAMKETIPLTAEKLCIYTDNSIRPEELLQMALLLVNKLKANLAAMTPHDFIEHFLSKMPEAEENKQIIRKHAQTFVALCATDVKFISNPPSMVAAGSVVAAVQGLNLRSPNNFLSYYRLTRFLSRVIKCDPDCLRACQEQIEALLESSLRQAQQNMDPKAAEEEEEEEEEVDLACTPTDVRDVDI
Variant	normalised enrichment score
PPHRRRLLFAFSP [C11F]	0.554
PPHRRRLLFARSP [C11R]	-0.108
PPRRRRLLFACSP [H3R]	0.277
PPHRHRLLFACSP [R5H]	0.287
PPHRRRLLFICSP [A10I]	-0.297
PPHSRRLLFACSP [R4S]	-0.369
PPHRRCLLFACSP [R6C]	-0.161
PPHRRRLLFACFP [S12F]	0.311
PPHRRRLLFCCSP [A10C]	-0.123
PPHRRRLLFACSQ [P13Q]	0.353
PPHPRRLLFACSP [R4P]	-0.0169
PPHRRRLLFACSY [P13Y]	0.517
PPHRRRLLFFCSP [A10F]	0.567

Mixed results
Molecule	target	test	test system	conditions	how to read	quantity	value
PhoQ, residues 284 288 289 292 302 303 NLCILV	PhoP, residues 12 14 15 18 19 IQFRS (Escherichia coli, UniProt P23836)	Sort-seq, refers to: YFP reporter	E. coli	PhoQ-PhoP variant library, added: 10 µM Mg2+	reference: high Mg2+ state, higher = stronger signaling	fold induction	14.8

A few entries again (set 2):
Sequence	E-score
TAGCACGA	0.0251
GCATGGAA	-0.027
CCCAACCA	-0.212
ACATCCAT	-0.208
CATCCGTA	0.22
AGCGCGTC	0.325
ATAGGGAG	-0.227
CCACTGGA	-0.131
AAAATACT	-0.0753
